Published values of several laboratories.
Each line is one published result; not all experiments were run side by side. Values joined by “and” are separate records of one study, mostly repeats; a detail may differ. Numbers after ± are the reported error.

CO[C@H]1C[C@@H]2CC[C@@H](C)[C@@](O)(O2)C(=O)C(=O)N2CCCC[C@H]2C(=O)O[C@H]([C@H](C)C[C@@H]2CC[C@@H](OC(=O)NCCOCCOCCOCCOCCOCCOCCOCCOCCC(=O)N3CCc4cc(Cn5nc(-c6ccc7oc(N)nc7c6)c6c(N)ncnc65)ccc4C3)[C@H](OC)C2)C[C@@H](O)[C@H](C)/C=C(\C)[C@@H](O)[C@@H](OC)C(=O)[C@H](C)C[C@H](C)/C=C/C=C/C=C/1C: “abdominal pain TEAE incidence” 3.5% (dose-escalation trial; patients with advanced solid tumours; intravenous, all doses weekly, grade ≥3).
The drug concentration of COc1ncccc1-c1cnn2ccc(N3CCN(C(=O)OC(C)C)CC3)nc12 is reported as 44 nM (rat, thermal hyperalgesia model, plasma; oral, 1 mg/kg, 180 min).
With COc1cc2c(Oc3ccc4[nH]c(C)cc4c3F)ccnc2cc1OCC1(N)CC1 the Proteinuria incidence was 0% (paediatric refractory sarcoma patients; 12 mg).
Under “mean corpuscular volume”, O=S(=O)(Nc1ccccc1)c1ccc(NC(=S)Nc2ccccc2)cc1 is recorded as 47.8 fL (mouse, male, blood; oral, 5 mg/kg daily, 14 days).
The acceptor concentration of O=C(Nc1ccc2c(c1)B(O)OC2)c1cccc(OCc2ccccc2)c1 is reported as 0.64 ± 0.25 µM (PAMPA; pre-coated trilayer membrane; 200 µM, 5 h, pH 7.4, acceptor plate, PBS).
The remaining peptide of CC(C)[C@@H]1NC(=O)CNC(=O)[C@H](CC(N)=O)NC(=O)[C@H](CCCNC(=N)N)NC(=O)[C@H](Cc2ccc(O)cc2)NC(=O)[C@H](C(C)C)NC(=O)[C@@H](NC(=O)[C@@H](NC(=O)[C@H](CC(N)=O)NC(=O)[C@H](Cc2c[nH]c3ccccc23)NC(=O)[C@H](C)NC(=O)[C@H](Cc2ccccc2)NC(=O)CN)C(C)C)CSSC[C@@H](C(=O)N[C@@H](Cc2cnc[nH]2)C(=O)N[C@@H](CCCNC(=N)N)C(=O)N[C@@H](CCCNC(=N)N)C(=O)N[C@@H](C)C(=O)N[C@@H](CC(N)=O)C(N)=O)NC(=O)[C@H](C(C)C)NC(=O)[C@H](CCCNC(=N)N)NC1=O is reported as 57.4% and 62% and 62.8% (HPLC; mouse mammary gland homogenate; 2560 µM, 4.00 h, 37 °C, 50 mg/mL tissue).
O=C1Nc2cc3[nH]nc(-c4ccncc4)c3cc2CN1Cc1ccccc1: “patients with acneiform dermatitis” 0% (CTCAE v4.03; advanced solid tumour patients; intravenous, 3.6 mg/kg).
Clc1ccc(-c2cc(Cl)c(Cl)cc2Cl)cc1Cl — result for “dose fraction in milk fat”: 88.2% (whole cow milk; 2000 nM nominal).
Under “remaining intact peptide”, CC[C@H](C)[C@H](NC(=O)[C@H](CCCCN)NC(=O)[C@H](CCC(=O)O)NC(=O)[C@H](CCCCN)NC(=O)[C@H](CO)NC(=O)[C@H](CCCCN)NC(=O)[C@H](CCCNC(=N)N)NC(=O)[C@H](Cc1ccccc1)NC(=O)[C@H](Cc1ccccc1)NC(=O)[C@H](CC(=O)O)NC(=O)CNC(=O)[C@H](CC(C)C)NC(=O)[C@@H](N)CC(C)C)C(=O)NCC(=O)N[C@@H](CCCCN)C(=O)N[C@@H](CCC(=O)O)C(=O)N[C@@H](Cc1ccccc1)C(=O)N[C@@H](CCCCN)C(=O)N[C@@H](CCCNC(=N)N)C(=O)N[C@H](C(=O)N[C@H](C(=O)N[C@@H](CCC(N)=O)C(=O)N[C@@H](CCCNC(=N)N)C(=O)N[C@H](C(=O)N[C@@H](CCCCN)C(=O)N[C@@H](CC(=O)O)C(=O)N[C@@H](Cc1ccccc1)C(=O)N[C@@H](CC(C)C)C(=O)N[C@@H](CCCNC(=N)N)C(=O)N[C@@H](CC(N)=O)C(=O)N[C@@H](CC(C)C)C(=O)N[C@H](C(=O)N1CCC[C@H]1C(=O)N[C@@H](CCCNC(=N)N)C(=O)N[C@H](C(=O)N[C@@H](CCC(=O)O)C(=O)N[C@@H](CO)C(=O)O)[C@@H](C)O)C(C)C)[C@@H](C)CC)C(C)C)[C@@H](C)CC is recorded as 0% (LC-MS; 50% pooled human serum; 40 µM, 300 min, pH 7.5, 37 °C; baseline: 0 h).
c1ccc2cc3c(ccc4ccccc43)cc2c1 gave a Vmax of 22.4 pmol/min/mg (metabolism; pooled human liver microsomes; pH 7.4).
C[C@@H]1NC(=O)[C@H](CCCCNC(=O)CO/N=C/C(=O)NCCCC[C@@H]2NC(=O)[C@@H](Cc3ccccc3)NC(=O)[C@H](CC(=O)O)NC(=O)CNC(=O)[C@H](CCCNC(=N)N)NC2=O)NC(=O)CNC(=O)[C@@H]2CCCN2C(=O)[C@H](CCCCNC(=O)CO/N=C/C(=O)NCCCC[C@@H]2NC(=O)[C@@H](Cc3ccccc3)NC(=O)[C@H](CC(=O)O)NC(=O)CNC(=O)[C@H](CCCNC(=N)N)NC2=O)NC(=O)[C@H](CCCCNC(=O)CN2CCCNCCNCCCNCC2)NC(=O)[C@H](CCCCNC(=O)CO/N=C/C(=O)NCCCC[C@@H]2NC(=O)[C@@H](Cc3ccccc3)NC(=O)[C@H](CC(=O)O)NC(=O)CNC(=O)[C@H](CCCNC(=N)N)NC2=O)NC(=O)CNC(=O)[C@@H]2CCCN2C(=O)[C@H](CCCCNC(=O)CO/N=C/C(=O)NCCCC[C@@H]2NC(=O)[C@@H](Cc3ccccc3)NC(=O)[C@H](CC(=O)O)NC(=O)CNC(=O)[C@H](CCCNC(=N)N)NC2=O)NC1=O [copper-64 labelled] gave a tissue uptake of 1.77 ± 0.21 %ID/g (normal mice, intestine; intravenous, 0.74 MBq, 24 h post-injection).
Under “subjects with adverse events”, [O-][S+]1CCc2nc(N3CCC(c4ncc(Cl)cn4)CC3)nc(NC3(CO)CCC3)c21 (centres unmarked) is recorded as 20% (phase I trial, item: nervous system disorders; idiopathic pulmonary fibrosis patients; 18 mg twice daily).
With C=C(CN(C(=O)c1c(C(F)F)nn(C)c1F)C1CC1)c1ccc(Cl)cc1Cl the mortality was 40% (static acute toxicity test; zebrafish (Brachydanio rerio); 1.20 mg a.i./L, 48 h).
With O=C(CCCCCCC(=O)Nc1ccccc1)NO the MTD was 300 mg (phase 1 dose escalation; patients with advanced solid malignancies; oral, added: bortezomib 1.3 mg/m^2 iv).

Excerpt of the above:
The drug concentration of COc1ncccc1-c1cnn2ccc(N3CCN(C(=O)OC(C)C)CC3)nc12 is reported as 44 nM (rat, thermal hyperalgesia model, plasma; oral, 1 mg/kg, 180 min).
With COc1cc2c(Oc3ccc4[nH]c(C)cc4c3F)ccnc2cc1OCC1(N)CC1 the Proteinuria incidence was 0% (paediatric refractory sarcoma patients; 12 mg).
